{"data": "Published values from different studies", "note": "A part holds a random share of what one study measured. Values joined by “and” are separate records of one study, mostly repeats; a detail may differ. Positions count from the first letter of the parent shown.", "sequence of UniProt Q9Y243 (whole entry, looked up)": "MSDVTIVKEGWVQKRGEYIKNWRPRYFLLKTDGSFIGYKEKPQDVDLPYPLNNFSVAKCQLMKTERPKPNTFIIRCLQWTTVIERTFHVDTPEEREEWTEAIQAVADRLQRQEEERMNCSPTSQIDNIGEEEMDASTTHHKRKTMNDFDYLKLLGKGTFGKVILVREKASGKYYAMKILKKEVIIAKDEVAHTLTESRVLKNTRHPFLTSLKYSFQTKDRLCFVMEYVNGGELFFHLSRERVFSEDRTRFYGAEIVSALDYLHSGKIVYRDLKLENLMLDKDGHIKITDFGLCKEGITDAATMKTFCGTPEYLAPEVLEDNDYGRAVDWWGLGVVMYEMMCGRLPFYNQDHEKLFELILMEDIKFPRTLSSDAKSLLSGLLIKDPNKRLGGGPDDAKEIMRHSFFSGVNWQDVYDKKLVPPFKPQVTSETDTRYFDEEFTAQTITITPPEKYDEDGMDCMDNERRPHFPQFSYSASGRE", "sequence of UniProt P31749 (whole entry, looked up)": "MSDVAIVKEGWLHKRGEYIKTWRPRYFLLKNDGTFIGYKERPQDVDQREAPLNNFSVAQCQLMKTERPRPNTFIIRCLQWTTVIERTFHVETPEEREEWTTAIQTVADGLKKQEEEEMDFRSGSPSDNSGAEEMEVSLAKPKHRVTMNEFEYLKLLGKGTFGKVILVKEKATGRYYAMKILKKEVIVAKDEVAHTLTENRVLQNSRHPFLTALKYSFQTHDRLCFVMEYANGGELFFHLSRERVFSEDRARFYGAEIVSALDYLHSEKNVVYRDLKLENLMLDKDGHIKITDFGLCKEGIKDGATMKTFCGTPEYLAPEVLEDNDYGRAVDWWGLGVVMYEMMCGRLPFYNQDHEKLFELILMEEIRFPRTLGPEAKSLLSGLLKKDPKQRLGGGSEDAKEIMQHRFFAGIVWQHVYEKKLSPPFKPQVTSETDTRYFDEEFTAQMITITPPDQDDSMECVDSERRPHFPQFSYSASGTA", "sequence of UniProt P31751 (whole entry, looked up)": "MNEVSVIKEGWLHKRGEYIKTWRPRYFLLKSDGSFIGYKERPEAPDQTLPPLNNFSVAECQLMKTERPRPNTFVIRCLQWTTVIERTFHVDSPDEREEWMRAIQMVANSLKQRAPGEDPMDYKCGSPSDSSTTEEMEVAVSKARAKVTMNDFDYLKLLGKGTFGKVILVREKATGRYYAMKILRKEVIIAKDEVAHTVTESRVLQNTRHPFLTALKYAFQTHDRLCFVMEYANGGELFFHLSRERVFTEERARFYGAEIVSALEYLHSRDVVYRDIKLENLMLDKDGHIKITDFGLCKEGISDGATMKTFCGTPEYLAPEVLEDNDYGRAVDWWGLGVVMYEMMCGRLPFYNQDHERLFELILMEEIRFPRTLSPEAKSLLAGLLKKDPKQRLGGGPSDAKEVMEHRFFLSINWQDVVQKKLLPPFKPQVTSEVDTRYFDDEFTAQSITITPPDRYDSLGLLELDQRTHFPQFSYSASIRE", "sequence of UniProt Q15418 (whole entry, looked up)": "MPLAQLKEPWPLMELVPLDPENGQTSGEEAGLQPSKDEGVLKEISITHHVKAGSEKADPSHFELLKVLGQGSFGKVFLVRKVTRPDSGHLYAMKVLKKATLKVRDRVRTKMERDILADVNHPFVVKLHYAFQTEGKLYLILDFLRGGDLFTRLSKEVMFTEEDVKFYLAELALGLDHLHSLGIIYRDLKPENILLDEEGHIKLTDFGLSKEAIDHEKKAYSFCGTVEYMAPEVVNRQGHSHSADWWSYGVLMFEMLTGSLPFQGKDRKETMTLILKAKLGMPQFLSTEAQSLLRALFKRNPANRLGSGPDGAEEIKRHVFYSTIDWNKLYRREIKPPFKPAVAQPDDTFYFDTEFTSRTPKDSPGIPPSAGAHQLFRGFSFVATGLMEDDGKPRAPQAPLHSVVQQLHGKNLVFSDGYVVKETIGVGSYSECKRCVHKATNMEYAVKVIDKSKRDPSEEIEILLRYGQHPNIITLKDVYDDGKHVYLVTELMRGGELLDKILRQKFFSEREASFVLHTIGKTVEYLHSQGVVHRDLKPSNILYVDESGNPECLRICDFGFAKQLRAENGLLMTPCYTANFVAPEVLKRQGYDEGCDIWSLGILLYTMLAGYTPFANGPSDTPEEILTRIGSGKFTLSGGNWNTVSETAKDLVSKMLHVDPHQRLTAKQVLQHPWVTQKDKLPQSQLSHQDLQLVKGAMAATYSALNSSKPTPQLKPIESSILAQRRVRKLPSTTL", "sequence of UniProt Q13177 (whole entry, looked up)": "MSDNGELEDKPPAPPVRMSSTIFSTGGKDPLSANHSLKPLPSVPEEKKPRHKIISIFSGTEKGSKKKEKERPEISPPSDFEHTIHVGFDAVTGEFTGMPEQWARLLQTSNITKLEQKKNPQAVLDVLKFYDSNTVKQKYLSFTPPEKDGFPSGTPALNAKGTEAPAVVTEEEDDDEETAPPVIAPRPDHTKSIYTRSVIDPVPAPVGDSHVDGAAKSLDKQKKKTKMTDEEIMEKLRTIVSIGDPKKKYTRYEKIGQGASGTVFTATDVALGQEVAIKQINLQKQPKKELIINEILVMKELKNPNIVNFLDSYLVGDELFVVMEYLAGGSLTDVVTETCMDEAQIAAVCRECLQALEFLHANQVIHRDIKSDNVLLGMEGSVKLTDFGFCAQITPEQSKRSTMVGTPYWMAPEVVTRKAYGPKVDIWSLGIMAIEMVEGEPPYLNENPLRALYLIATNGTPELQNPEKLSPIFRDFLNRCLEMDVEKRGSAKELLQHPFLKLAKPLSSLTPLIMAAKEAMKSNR"}
{"data": "Set 1", "Compound": "C=CC(=O)Nc1ccc2[nH]c(=O)n(C3CCN(Cc4ccc(-c5ccc6c(c5)NC(=O)CO6)cc4)CC3)c2c1", "observed": "target engagement", "method": "NanoBRET", "sample": "live cells"}
{"target": "AKT2 (Homo sapiens, UniProt P31751)", "EC50": "5.76 µM and 6.05 µM and 2.62 µM"}
{"target": "AKT1 (Homo sapiens, UniProt P31749)", "EC50": "1.92 µM and 1.4 µM and 7.26 µM"}
{"target": "AKT3 (Homo sapiens, UniProt Q9Y243)", "EC50": "10.1 µM and 7.7 µM"}
{"data": "Set 2", "target": "CCNA1, cyclin fold, Cln2 fusion (human)", "method": "yeast growth competition, sequencing", "sample": "yeast", "notes": "weak parent motif", "baseline": "not given", "direction": "higher = stronger binding", "parent": "viral docking peptide; KGVKRKLFAEDSS"}
{"Change": "L7H", "normalised enrichment score": -0.0176}
{"Change": "A9Y", "normalised enrichment score": 1.32}
{"Change": "V3S", "normalised enrichment score": 0.155}
{"Change": "V3G", "normalised enrichment score": 0.191}
{"Change": "V3R", "normalised enrichment score": 0.642}
{"Change": "K4V", "normalised enrichment score": 0.216}
{"Change": "R5Q", "normalised enrichment score": 0.696}
{"Change": "R5A", "normalised enrichment score": 0.16}
{"data": "Set 3", "target": "HLA class I histocompatibility antigen, C alpha chain, allele C*04:01 (Homo sapiens, UniProt P10321)", "observed": "peptide-MHC binding", "molecule type": "peptide", "tested at": "concentration not given"}
{"Sequence": "YPRNGWPAL", "binding": "inactive"}
{"Sequence": "MTMLIKAFK", "binding": "inactive"}
{"Sequence": "YLRKHIRAL", "binding": "inactive"}
{"Sequence": "TYLQSLASL", "binding": "inactive"}
{"Sequence": "GMMRWCMPV", "binding": "inactive"}
{"Sequence": "FPIQDFPII", "binding": "inactive"}
{"Sequence": "YFDPANGKF", "binding": "active"}
{"Sequence": "RTWFYRTEF", "binding": "inactive"}
{"data": "Other studies, line by line"}
{"Structure (SMILES)": "CC(C)(C)c1cc(C=C(C#N)C#N)cc(Br)c1O", "target or system": "PAK2 (Homo sapiens, UniProt Q13177)", "test": "enzyme activity, inhibitor", "setting": "0.5 µM", "scale": "baseline: control", "measurement": "remaining activity", "result": "96.5%"}
{"Structure (SMILES)": "Cl.O.Oc1ccc2c3c1O[C@H]1c4[nH]c5ccccc5c4C[C@@]4(O)[C@@H](C2)N(CC2CC2)CC[C@]314", "target or system": "Sarcocystis neurona", "test": "parasite growth", "setting": "concentration not given, secondary screen", "measurement": "inhibition", "result": "-20.7%"}
{"Structure (SMILES)": "O=C1NC(=O)c2c1c1c3ccccc3n3c1c1c2c2ccccc2n1[C@H]1CC[C@@H]3O1", "target or system": "RPS6KA1 (Homo sapiens, UniProt Q15418)", "test": "enzyme activity, inhibitor", "setting": "0.5 µM", "scale": "baseline: control", "measurement": "remaining activity", "result": "1.58%"}
{"note": "Excerpt of the above (set 2):"}
{"Change": "V3G", "normalised enrichment score": 0.191}
{"Change": "L7H", "normalised enrichment score": -0.0176}
{"Change": "R5A", "normalised enrichment score": 0.16}
{"Change": "V3S", "normalised enrichment score": 0.155}
